Results pooled from the literature.
Numbered parts are unrelated; each lists some results of a single study. Substitutions count along the parent as printed.

Sample 1
Target: CCNA2, cyclin fold, Cln2 fusion (human)
Method: yeast growth competition, sequencing
Matrix: yeast
Setting: weak parent motif
Baseline: not given
Reading: higher = stronger binding
Parent: EXO1 docking peptide (human); KPECGRVQRAIFQ
| Variant | normalised enrichment score |
| --- | --- |
| KPECGRVARAIFQ [Q8A] | 1.16 |
| KPECGAVQRAIFQ [R6A] | 0.01 |
| KPEAGRVQRAIFQ [C4A] | 0.554 |
| KPECARVQRAIFQ [G5A] | 0.0642 |
| KAECGRVQRAIFQ [P2A] | 0.74 |
| KPECGRVQRAIFA [Q13A] | 0.81 |

Sample 2
Target: Histone acetyltransferase KAT6A, winged helix 1, GST fusion (KAT6A, Homo sapiens, UniProt Q92794, residues 1-85)
Method: protein binding microarray
Molecule type: double-stranded DNA, one strand shown
Matrix: in vitro
Tested at: not given
Setting: 8-mer, flanks averaged, mean of 2 arrays, mostly near background
Baseline: not given
Reading: higher = stronger binding
Construct (chain): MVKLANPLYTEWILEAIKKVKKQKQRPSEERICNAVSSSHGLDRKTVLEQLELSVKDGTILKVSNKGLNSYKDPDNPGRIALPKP
| Oligonucleotide | E-score |
| --- | --- |
| CCGCACCA | 0.0399 |
| CATTGCCA | -0.22 |
| ATTCCAAA | -0.0994 |
| ACTAGTAG | 0.0483 |
| AAATTAAA | -0.0726 |
| CTTTCTGC | -0.00925 |
| ACGTTCGC | 0.0542 |
| GCACCTGC | 0.0532 |
| TGATGGAA | -0.217 |
| ACACGCTG | -0.0193 |
| CAGCATGA | -0.283 |
| AGCATGAG | -0.242 |
| GGCCCGTA | 0.281 |
| ACTCGTAA | 0.0841 |
| TACCTCCA | -0.186 |
| AGCTTCGG | -0.101 |
| CCGTAGCG | 0.388 |
| CAGAATAC | -0.0745 |
| AAAATGAC | -0.143 |
| CCGACCTA | 0.0976 |
| ATACAACA | -0.201 |
| CCATACGG | 0.311 |
| ATCTGTTA | -0.217 |
| AATCCGAT | 0.0835 |
| CGCGGTAC | 0.449 |

Sample 3
Target: Sal-like protein 4, full length isoform B (SALL4, Homo sapiens, UniProt Q9UJQ4-2, residues 1-616)
Method: universal PBM
Molecule type: double-stranded DNA, one strand shown
Matrix: in vitro
Tested at: not given
Setting: 8-mer, flanks averaged, mean of replicates
Reading: higher = stronger binding
| Oligonucleotide | E-score |
| --- | --- |
| ACTTGGCA | 0.00762 |
| ATTCATCA | 0.267 |
| CCGAGTTC | -0.151 |
| AACATTAG | 0.153 |
| GAAGCGAA | -0.086 |
| AATCGCGG | -0.147 |
| CCGAGAGA | -0.152 |
| AGAGACCG | -0.242 |
| AGGGCGGG | -0.236 |
| AGAGGGGA | -0.22 |
| CGTGGCAG | -0.197 |
| AAAATACC | 0.153 |
| AGAACTTG | 0.0758 |
| AATTGACT | 0.112 |
| GCGCATAC | -0.0252 |
| CGTTGCGC | -0.254 |
| AGTTTGTA | 0.116 |
| CGGAAACG | -0.188 |
| CCGCACAC | -0.205 |
| TGACCTCA | -0.0783 |

Sample 4
Target: Centromere-binding protein 1, full length, N-terminal tag (CBF1, Saccharomyces cerevisiae, UniProt P17106, residues 1-351)
Sequence of UniProt P17106 (whole entry, looked up): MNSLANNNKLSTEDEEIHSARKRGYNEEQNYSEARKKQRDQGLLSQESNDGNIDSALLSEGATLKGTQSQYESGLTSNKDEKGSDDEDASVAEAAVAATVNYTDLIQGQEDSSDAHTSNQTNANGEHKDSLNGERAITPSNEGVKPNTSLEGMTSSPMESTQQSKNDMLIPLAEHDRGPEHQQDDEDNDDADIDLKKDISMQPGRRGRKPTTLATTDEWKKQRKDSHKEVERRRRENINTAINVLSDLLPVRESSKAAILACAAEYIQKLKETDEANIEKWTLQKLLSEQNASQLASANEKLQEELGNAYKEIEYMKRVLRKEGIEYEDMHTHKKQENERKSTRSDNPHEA
Method: protein-binding microarray
Molecule type: double-stranded DNA, one strand shown
Matrix: in vitro
Tested at: 0.8 µM
Setting: whole 60-bp probe, no competitor
Reading: higher = stronger binding
All sequences stand within: … GTCTTGATTCGCTTGACGCTGCTG
| Oligonucleotide | fluorescence intensity [a.u.] |
| --- | --- |
| GAAGGACGTCGTAATCACGGTTACTAAGTACTTTAG | 534 |
| GAACTCCCAAAATATCAGCTGACGTTTTCATATTAG | 1480 |
| TGTACGAAGCTATGTGATACAAATATAGTAGTTAGG | 583 |
| CTATCTAGTTTGGGTCACCTGATGCAGAATTGGTTC | 10000 |
| CTACCCCCTCATCGTGATGTAGTCAACCCTCTTTTC | 523 |
| GAAATCTTCCACGCTGATGTAAAGTGTAGTTCTTAG | 514 |
| TGTACGAAGCTATGGCATGTGCATATAGTAGTTAGG | 655 |
| GAAGTATGAGAAGATGGGGTGAAGTAAAAGCGTTAG | 531 |
| CTACCATACTACCATCACCCGAATGTACAGCCATTC | 548 |
| GAAATGATATATCATCACCCGGAGGCCGGTTATTAG | 482 |
| GAATACTGGAAGCACCACGTAATAGTGGAAAAGTAG | 532 |
| GAATAATTGTGTTATCACCTGCTATTTTTCTTTTAG | 953 |
| CTATTTGACATTTGTCTCATGACCACGACATTGTTC | 1050 |
| GAATGTAAACTGTATCACGCATACTTTTTGCTGTAG | 650 |
| GAAGAAAAACATCAGGTGGCGATTAATGAAAGATAG | 1230 |
| CCTAACTACTATAGCCACGTGAAATAGCTTCGTACA | 2230 |
| CTATACTGTTCTCCTAACGTGTCTGTGTGTTTGTTC | 575 |
| GAAAATATTCCGATGTACGTGTGTGTGGCTGATTAG | 549 |
| GAATGTATCTTGAATTTCGTGTCACACACTCTTTAG | 904 |
| CCTAACTACTATAATGGTGACGCATAGCTTCGTACA | 533 |
| CTAGGTTCCTTCAGCATCAGAACAGATCACAAATTC | 551 |
| CTACATTTTTAACGTGGTGAGAAAACCCGAAATTTC | 632 |
| CTACAGTTTTATCGTCATGTGCGCGTGTAGGCATTC | 2330 |
| TGTACGAAGCTATGCCGCGTGATTATAGTAGTTAGG | 919 |
| GAACTCTATTTTTGGGTACACGTGCGTGTTTCTTAG | 5850 |

Sample 5
Target: RNA binding protein fox-1 homolog 2, RRM domain, GST-SBP tag (RBFOX2, Homo sapiens, UniProt O43251-10, residues 100-194)
Method: RNA Bind-n-Seq
Molecule type: RNA
Matrix: in vitro
Tested at: 365 nM
Setting: natural RNA segment, single round, ends assumed
Baseline: no-protein control
Reading: higher = stronger binding
All sequences stand within: GGGAGUUCUACAGUCCGACGAUC … UGGAAUUCUCGGGUGCCAA
Residues (chain): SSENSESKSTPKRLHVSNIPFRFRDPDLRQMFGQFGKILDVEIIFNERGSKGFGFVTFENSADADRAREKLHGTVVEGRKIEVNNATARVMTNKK
| Oligonucleotide | RBNS enrichment (R) |
| --- | --- |
| AAUACAGCGUGGGACCCUUCAGCCACUACAACAGAAUUUUUUAAAUUGACAGUUGCAGAAUUGUGGAGUGUUUUUACAUUGAUCUUUUGCUAAUGCAAUUAGCAUUAUGU | 0.312 |
| ACACACACACACACACACAUAUUUGUAACAUAUUGUGACCAAAUGGGCCUCAAAGAUUCAAAGAUUAAAAACAAAAAGCUUUUGAUGGAAAAGAUGUGGGUGGAUAGUAU | 0.73 |
| UGCAAGAUUUUGCGUUUAUUCAGGCAAAAACUGGUCAAAAUGGUUACUACAUGAUUUGUUCCCAGAGGUUUGAAACAUUCAGUGAAACUUUUUAAAACUUUGAUUGCAUG | 0.888 |
| CUUGGGGAUUUUCCAUCUGACUUCCCUGGCCAUCUUAUCCCAUCCUUGCACUACCAGAAGAUUCAUACACUUUUGAGACUCCAGUGAGACGCUGUUUUCACCCCUUCCUC | 0.666 |
| GUUCAAGGGAAUAGAUGAGUAAGCAACGUUUCAAAUUUGGGAUGAAAAGACUGCCAAACUAUUGGCUGACCAAGGUUUUUAAAUUCAGAAGAGCAAUUCUAAAUCUAAAG | 0.787 |
| GGCUCCCAGUCUCUCCUCUGUGAUUUUCCAGUUGCCCGGGAUCUCAGAAUAUGCUCAUCCACUCCUUCAUCAUCCCACUAUCCGAGUCCUACUUCGUUCCCCCUUUGUAA | 1.63 |
| UAGGAGGUAUCCUUUGGAUGCUGAAGUGUUGGGAUUUUGAGGACAUGCGGAUGAUUUAUGAGAAUAGAGGGGCAGAGUUUGUGAAGUCUAGGGUUUUUUGUCCAGUGGGU | 9.48 |
| GAUAGGGCUGGGGUGGGCAGAGUCUGAACACUCCAGCAUUCUACUACCUUGCACUGUGGGGGCAGGGAGAAAGUCACCAUGGCCAGAGAAAGGUAGUGGUCACUGGGUCU | 0.361 |
| AUUCUGAUUGCUCUAUGCUGCUUUCCUCCUCUUAAAGUUUCAUGAGCUCUUGGGUUAAAUGGUUUGUUAUGAGCAGGCUUUCCAUUACUCAUUGUUCUGCGAUUUAUUUU | 0.419 |
| UCCAAAUAAUCUCGUUUACUCUCACCUGUUUAUGCAAAUUGUAUAAGGUUUCUUAUGCCCAAGCUUGAAAAAUGAUUUCCCAGUAGACAAGAGGCGGCUACCUAUCCUAC | 0.68 |
| CACGUGUCACACUGUUUGGAGGGGGAAGGGCAUUGCCAGCCACUGUCUGCCGAGUCGUCUGUGUAAAAGCCUGUGCUUAGUCUUCUCUGGAAAGAACUGAGGCCAGACGA | 0.988 |
| GUGGGCAGGGGCUGCAUUUUAUGAAACUGCCCAGCAAGCUGCGCUCCCUGGGGCCCCAGGAUCCACCUAACUGGCCUGGCACCUGGUGCCACGUGCUGCUGCCGCCAGGA | 1.17 |

Repeated from above (sample 3):
| Oligonucleotide | E-score |
| --- | --- |
| TGACCTCA | -0.0783 |
| AGAGGGGA | -0.22 |
| CGTTGCGC | -0.254 |
| AAAATACC | 0.153 |
| ACTTGGCA | 0.00762 |
| CCGAGAGA | -0.152 |
| ATTCATCA | 0.267 |
| AGGGCGGG | -0.236 |
| AGAACTTG | 0.0758 |
| AATTGACT | 0.112 |
| GCGCATAC | -0.0252 |
